Measured values collected from several papers.
Protocols differ between the studies behind these lines. Several values in a cell are separate wells, animals, samples, runs or records. Numbers after ± are the reported error.
MAPK13: Mitogen-activated protein kinase 13 (MAPK13, Homo sapiens, UniProt O15264)
UniProt O15264, sequence (whole entry, looked up): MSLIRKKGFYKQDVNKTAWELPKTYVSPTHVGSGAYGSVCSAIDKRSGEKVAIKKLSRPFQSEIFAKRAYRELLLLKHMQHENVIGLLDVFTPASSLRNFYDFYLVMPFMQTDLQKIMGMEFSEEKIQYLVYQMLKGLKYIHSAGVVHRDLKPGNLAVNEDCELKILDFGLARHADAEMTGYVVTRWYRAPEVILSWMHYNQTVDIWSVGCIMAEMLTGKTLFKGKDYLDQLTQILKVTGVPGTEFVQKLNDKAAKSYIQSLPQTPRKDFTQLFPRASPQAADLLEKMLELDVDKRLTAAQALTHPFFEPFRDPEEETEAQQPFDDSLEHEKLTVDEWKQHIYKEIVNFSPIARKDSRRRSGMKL
UniProt O14965, sequence (whole entry, looked up): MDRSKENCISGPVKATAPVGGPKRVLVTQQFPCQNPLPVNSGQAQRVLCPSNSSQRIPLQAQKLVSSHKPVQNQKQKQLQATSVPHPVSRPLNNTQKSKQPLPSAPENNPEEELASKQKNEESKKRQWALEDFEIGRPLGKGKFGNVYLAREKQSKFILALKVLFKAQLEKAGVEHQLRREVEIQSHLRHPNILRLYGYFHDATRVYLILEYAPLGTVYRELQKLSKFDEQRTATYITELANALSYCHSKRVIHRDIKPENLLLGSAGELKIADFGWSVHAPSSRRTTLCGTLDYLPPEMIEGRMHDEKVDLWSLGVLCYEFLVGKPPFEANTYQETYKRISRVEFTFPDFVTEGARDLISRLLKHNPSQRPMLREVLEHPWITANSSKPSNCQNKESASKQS
UniProt O75582, sequence (whole entry, looked up): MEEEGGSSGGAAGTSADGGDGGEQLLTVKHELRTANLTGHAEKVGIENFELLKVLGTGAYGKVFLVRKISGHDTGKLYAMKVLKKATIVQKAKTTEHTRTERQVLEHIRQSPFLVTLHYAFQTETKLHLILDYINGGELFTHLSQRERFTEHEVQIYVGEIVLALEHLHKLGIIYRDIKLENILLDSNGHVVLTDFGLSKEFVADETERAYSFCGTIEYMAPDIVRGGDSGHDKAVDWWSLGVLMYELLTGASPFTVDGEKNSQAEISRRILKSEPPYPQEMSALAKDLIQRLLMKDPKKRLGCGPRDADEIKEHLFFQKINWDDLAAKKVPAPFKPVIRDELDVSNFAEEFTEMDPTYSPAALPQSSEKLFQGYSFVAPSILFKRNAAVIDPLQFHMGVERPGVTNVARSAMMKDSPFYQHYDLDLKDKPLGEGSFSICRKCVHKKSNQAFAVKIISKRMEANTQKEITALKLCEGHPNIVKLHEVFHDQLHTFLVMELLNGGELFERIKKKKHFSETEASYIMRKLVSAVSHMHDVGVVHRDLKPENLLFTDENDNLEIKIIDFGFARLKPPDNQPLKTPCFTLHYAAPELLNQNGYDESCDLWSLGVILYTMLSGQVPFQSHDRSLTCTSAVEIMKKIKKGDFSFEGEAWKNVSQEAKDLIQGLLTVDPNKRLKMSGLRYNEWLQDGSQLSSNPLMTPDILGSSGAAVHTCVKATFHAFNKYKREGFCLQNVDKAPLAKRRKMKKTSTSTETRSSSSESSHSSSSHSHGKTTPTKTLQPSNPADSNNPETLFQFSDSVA

CC(C)[C@H]1NC(=O)C[C@H]2/C=C/CCSSC[C@@H](NC1=O)C(=O)N[C@H](Cc1cccc3ccccc13)C(=O)NCC(=O)O2
inhibition (Aurora kinase A (AURKA, Homo sapiens, UniProt O14965); enzyme activity, inhibitor; 10 µM): -13.1%

CC[C@H](C)[C@H](NC(=O)[C@@H](NC(=O)[C@H](CCCNC(=N)N)NC(=O)[C@H](CCCNC(=N)N)NC(=O)[C@@H](NC(=O)[C@H](Cc1c[nH]c2ccccc12)NC(=O)[C@H](CCCNC(=N)N)NC(=O)[C@H](Cc1c[nH]c2ccccc12)NC(=O)[C@H](CC(C)C)NC(=O)[C@H](CCCNC(=N)N)NC(=O)[C@H](CCCNC(=N)N)NC(=O)[C@@H](N)C(C)C)[C@@H](C)CC)C(C)C)C(N)=O
minimum haemolytic concentration (sheep red blood cells; 10% haemolysis; 1 h, 37 °C): 40 µM

O=c1n(CCNCCOS(=O)(=O)c2ccccc2)c(=O)n(S(=O)(=O)c2ccccc2)c(=O)n1S(=O)(=O)c1ccccc1
viability (HUVEC; cell growth or viability, MTT; 25 µg/mL, 24 h): 88.1%

CCN(CCCCOc1ccc(CCC(=O)N2CCC(Cc3ccccc3)CC2)cc1OC)Cc1ccccc1
efflux ratio (Caco-2 monolayer; 10 µM, 120 min): 1.67

CNC(=O)CC[C@H](Cc1ccccc1)NC(=O)[C@@H](Cc1ccc(Cl)cc1Cl)NC(=O)[C@H](N)Cc1ccccc1[N+](=O)[O-]
viability (Huh-7-ACE2; CellTiter-Glo; 12.5 µM, 48 h, unit not given; baseline: DMSO): 1.03 and 1.01 and 0.967

O=C1NC(=O)c2c1c1cc(F)c[n+]3c1c1c2c2cc(O)ccc2[n]1[Ru-4]312([N]=C=S)[S+]3CC[S+]1CC[S+]2CC3 (stereo not shown)
remaining activity (MAPK13; enzyme activity; 100 nM, human enzyme, added: 10 µM ATP; baseline: untreated): 78%

FC(F)(F)c1cc2nc(c1)CNCc1cc(C(F)(F)F)cc(n1)CNC2
LD50 (Friedreich's ataxia fibroblasts; MTT): 0.657 mM

O=C1NC2(CC2)COc2ncc(F)cc2[C@H]2COCCN2c2ccn3ncc1c3n2
organ-to-brain weight ratio (Sprague-Dawley rat, male, adrenals; oral, 10 mg/kg/day, 4 weeks, end of treatment): 3.6 ± 0.59%

CC[C@H](C)[C@H](NC(=O)[C@H](CO)NC(=O)[C@H](Cc1ccc(O)cc1)NC(=O)[C@H](Cc1ccc(O)cc1)NC(=O)[C@H](CC(N)=O)NC(=O)CNC(=O)[C@H](CO)NC(=O)[C@H](Cc1ccc(O)cc1)NC(=O)[C@H](CO)NC(=O)[C@H](CO)NC(=O)[C@H](CC(N)=O)NC(=O)COCCOCCNC(=O)CN1CCN(CC(=O)O)CCN(CC(=O)O)CCN(CC(=O)O)CC1)C(=O)N[C@@H](CC(C)C)C(N)=O [copper-64 labelled]
maximum metastasis uptake (dynamic PET; tamoxifen-induced PDAC mouse model, metastases; 5.5 min, CLDN4-expressing tumours): 22.5 %IA/cc

CSCC[C@H](NC(=O)[C@H](CCCCN)NC(=O)[C@H](CC(N)=O)NC(=O)[C@H](C)NC(=O)[C@H](C)NC(=O)[C@H](CCCCN)NC(=O)[C@H](C)NC(=O)[C@@H](NC(=O)CNC(=O)[C@H](Cc1c[nH]c2ccccc12)NC(=O)[C@H](Cc1ccc(O)cc1)NC(=O)[C@H](CC(C)C)NC(=O)[C@H](CCCCN)NC(=O)CNC(=O)[C@@H](NC(=O)[C@H](Cc1c[nH]c2ccccc12)NC(=O)CNC(=O)[C@H](Cc1ccccc1)NC(=O)[C@H](CCCCN)NC(=O)[C@H](CC(C)C)NC(=O)[C@@H](NC(=O)[C@@H](NC(=O)[C@H](CCCNC(=N)N)NC(=O)[C@H](Cc1c[nH]c2ccccc12)NC(=O)CN)[C@@H](C)O)C(C)C)C(C)C)C(C)C)C(=O)N[C@@H](C)C(=O)N[C@@H](CCCNC(=N)N)C(=O)N[C@@H](Cc1ccc(O)cc1)C(=O)N[C@@H](CC(C)C)C(=O)N[C@H](C(=O)N[C@@H](CCCCN)C(=O)N[C@@H](C)C(=O)N[C@H](C(=O)N[C@@H](Cc1ccc(O)cc1)C(=O)NCC(=O)N[C@@H](CCCNC(=N)N)C(=O)N[C@H](C(=O)N[C@@H](CCCNC(=N)N)C(=O)N[C@@H](CCCCN)C(=O)N[C@@H](CC(=O)O)C(=O)N[C@@H](C)C(=O)O)C(C)C)C(C)C)[C@@H](C)O
IC50 (HUVEC; cytotoxicity, MTT; 24 h, 37 °C): 16.9 µM

CC[C@H](C)[C@H](NC(=O)[C@H](C)NC(=O)[C@H](CCCCN)NC(=O)[C@H](CC(C)C)NC(=O)[C@@H](N)Cc1ccccc1)C(=O)N[C@@H](CCCCN)C(=O)N[C@@H](CCCCN)C(=O)N[C@@H](Cc1ccccc1)C(=O)NCC(=O)N[C@@H](CCCCN)C(=O)N[C@@H](CCC(=O)O)C(=O)N[C@@H](Cc1ccccc1)C(=O)N[C@@H](CCCCN)C(=O)N[C@@H](CCCCN)C(=O)N[C@H](C(=O)NCC(=O)N[C@@H](C)C(=O)N[C@@H](CCCCN)C(=O)N[C@@H](CC(C)C)C(=O)N[C@@H](CCCCN)C(=O)O)[C@@H](C)CC
viability (HeLa; cell growth or viability, MTT; 8 µg/mL): 94.7%

C[C@@H]1CC[C@H]2[C@@H](C)C(=O)O[C@@H]3O[C@@]4(C)CC[C@@H]1[C@]32OO4
CC50 (HEK-293T; cell growth or viability, CCK-8; 48 h): > 100 µM

C[C@H](NC(=O)[C@@H](O)c1cc(F)cc(F)c1)C(=O)N[C@@H]1C(=O)N(C)c2ccccc2-c2ccccc21
CC50 (NHDF; cell viability, CellTiter-Glo; 48 h, uninfected): 1370 µM

CC(C)Cc1ccc(C(C)C(=O)[O-])cc1.CC(C)Cc1ccc(C(C)C(=O)[O-])cc1.[Cu+2].c1ccncc1.c1ccncc1 (stereo not shown)
IC50 (MCF7; cytotoxicity, MTT; 48 h): > 100 µM

CS(C)(=O)=Nc1ccc(-c2ccc(-c3nc4cc(O[C@@H]5CO[C@H]6[C@@H]5OC[C@H]6O)[nH]c4cc3F)cc2)cc1
inhibition (MAPK13; enzyme activity, inhibitor; 10 µM): 39%

CC[C@H](C)[C@H](NC(=O)[C@H](Cc1c[nH]c2ccccc12)NC(=O)[C@H](CCCCN)NC(=O)[C@H](CC(C)C)NC(=O)[C@@H](NC(=O)[C@@H](NC(=O)CNC(=O)[C@H](CCCCN)NC(=O)[C@H](Cc1c[nH]cn1)NC(=O)[C@H](CCCCN)NC(=O)[C@H](Cc1c[nH]c2ccccc12)NC(=O)[C@H](C)NC(=O)[C@H](CC(C)C)NC(=O)[C@H](CO)NC(=O)[C@@H](NC(=O)[C@H](Cc1ccc(O)cc1)NC(=O)[C@H](CCCCN)NC(=O)[C@H](CCC(N)=O)NC(=O)CNC(=O)[C@H](CCCCN)NC(=O)[C@@H](NC(=O)[C@H](C)NC(=O)[C@H](CC(C)C)NC(=O)[C@H](Cc1ccccc1)NC(=O)[C@H](CCC(N)=O)NC(=O)[C@@H](NC(=O)[C@H](CC(C)C)NC(=O)[C@H](CCCCN)NC(=O)[C@H](CCSC)NC(=O)[C@H](Cc1ccccc1)NC(=O)[C@H](C)NC(=O)[C@H](C)NC(=O)[C@H](CCSC)NC=O)[C@@H](C)CC)[C@@H](C)O)C(C)C)[C@@H](C)O)[C@@H](C)CC)C(=O)N[C@@H](CC(N)=O)C(=O)N[C@@H](C)C(=O)NCC(=O)N[C@@H](CCC(N)=O)C(=O)N[C@@H](CO)C(=O)N[C@@H](Cc1ccccc1)C(=O)N[C@@H](CCC(=O)O)C(=O)N[C@@H](Cc1c[nH]c2ccccc12)C(=O)N[C@H](C(=O)N[C@@H](Cc1ccc(O)cc1)C(=O)N[C@@H](CCCCN)C(=O)N[C@@H](CCC(N)=O)C(=O)N[C@H](C(=O)N[C@@H](CCCCN)C(=O)N[C@@H](CCCCN)C(=O)N[C@@H](CC(C)C)C(=O)N[C@@H](Cc1c[nH]c2ccccc12)C(=O)N[C@@H](C)C(=O)O)[C@@H](C)CC)[C@@H](C)CC
HD50 (human erythrocytes; hemolysis; pH 7.2; baseline: water complete hemolysis): 500 µg/mL

COC(=O)/C=C/c1ccc(O)c(OC)c1
subcytotoxic concentration (HaCaT; MTT; 24 h, 10% FBS): 50 µM

CN(C)CCCCNC(=O)C[C@H](Cc1ccc(F)cc1)NC(=O)[C@@H](Cc1ccc(Cl)cc1Cl)NC(=O)[C@H](N)Cc1ccccc1C#N
cytosolic concentration (HEK-293T; LC-MS, digitonin-released cytosol; 10 µM, 4 h): 1.2 µM and 1.5 µM and 1.4 µM

CC[C@H](C)[C@H](NC(=O)[C@H](CCCCN)NC(=O)CNC(=O)[C@H](CC(C)C)NC(=O)[C@H](Cc1ccccc1)NC(=O)[C@H](CCCCN)NC(=O)[C@H](CO)NC(=O)[C@H](Cc1ccccc1)NC(=O)[C@H](Cc1c[nH]c2ccccc12)NC(=O)[C@H](CCC(N)=O)NC(=O)[C@@H](NC(=O)[C@H](Cc1ccccc1)NC(=O)CCCCCNC(=O)CN1CCN(CC(=O)O)CCN(CC(=O)O)CCN(CC(=O)O)CC1)C(C)C)C(=O)N[C@@H](CCC(=O)O)C(=O)N1CCC[C@H]1C(=O)N[C@@H](CC(=O)O)C(=O)N[C@H](C(=O)N[C@@H](CO)C(=O)N[C@@H](CCC(N)=O)C(=O)N[C@H](C(=O)N[C@@H](CCC(N)=O)C(=O)N[C@@H](CC(=O)O)C(=O)N1CCC[C@H]1C(=O)N[C@@H](CC(N)=O)C(=O)N[C@@H](CC(=O)O)C(=O)N[C@@H](CCC(N)=O)C(=O)N[C@@H](Cc1ccc(O)cc1)C(=O)N[C@@H](CCC(=O)O)C(=O)N1CCC[C@H]1C(=O)N[C@@H](Cc1ccccc1)C(=O)O)C(C)C)C(C)C [copper-64 labelled]
SUVmean (dynamic PET; mouse both sexes, CT26 tumour, checkpoint inhibitor-treated, tumour; intravenous, 100 µCi/mouse, 130 s): 2.46 SUV

CNC(=O)C[C@H](Cc1ccccc1)NC(=O)[C@@H](Cc1ccc(Cl)cc1Cl)NC(=O)[C@H](N)Cc1ccccc1C#N
viability (Huh-7-ACE2; CellTiter-Glo; 0.0488 µM, 48 h, unit not given; baseline: DMSO): 0.968 and 1.11 and 0.992

CN(C)[C@H]1C[C@@]23CC[C@@]4(O2)C(=CC[C@]2(C)[C@@H](c5ccc6ccncc6c5)CC[C@H]24)C=C3[C@@H](O)[C@@H]1O
inhibition (Ribosomal protein S6 kinase alpha-5, N-terminal kinase domain (RPS6KA5, Homo sapiens, UniProt O75582); ATP probe labelling, inhibitor, KiNativ profiling; 1 µM): 8.3%

CC[C@H](C)[C@H](NC(=O)[C@H](CCCCN)NC(=O)[C@H](CC(N)=O)NC(=O)CNC(=O)[C@@H](NC(=O)[C@H](C)NC(=O)[C@H](CCCNC(=N)N)NC(=O)[C@H](CC(C)C)NC(=O)[C@H](CCCCN)NC(=O)[C@H](CCCCN)NC(=O)[C@H](CCCCN)NC(=O)[C@H](C)NC(=O)[C@H](CCCCN)NC(=O)[C@@H]1CSSC[C@H](NC(=O)[C@H](CCCNC(=N)N)NC(=O)CN)C(=O)N[C@@H](CC(N)=O)C(=O)N[C@@H](CC(C)C)C(=O)N[C@@H](CC(C)C)C(=O)N1)C(C)C)C(=O)N[C@@H](CCCCN)C(=O)N[C@@H](CCC(=O)O)C(=O)N[C@H](C(=O)N[C@@H](CCCCN)C(=O)N[C@@H](CC(N)=O)C(=O)N[C@H](C(=O)N[C@H](C(=O)N[C@@H](Cc1ccccc1)C(=O)N[C@@H](CC(N)=O)C(=O)N[C@@H](CCCNC(=N)N)C(=O)O)C(C)C)C(C)C)[C@@H](C)CC
hemolysis (human erythrocytes; 5 µM, 30 min, 37 °C; baseline: Triton X-100): -5.14 ± 3.45%

For quick reference, copied from above:
CC[C@H](C)[C@H](NC(=O)[C@H](C)NC(=O)[C@H](CCCCN)NC(=O)[C@H](CC(C)C)NC(=O)[C@@H](N)Cc1ccccc1)C(=O)N[C@@H](CCCCN)C(=O)N[C@@H](CCCCN)C(=O)N[C@@H](Cc1ccccc1)C(=O)NCC(=O)N[C@@H](CCCCN)C(=O)N[C@@H](CCC(=O)O)C(=O)N[C@@H](Cc1ccccc1)C(=O)N[C@@H](CCCCN)C(=O)N[C@@H](CCCCN)C(=O)N[C@H](C(=O)NCC(=O)N[C@@H](C)C(=O)N[C@@H](CCCCN)C(=O)N[C@@H](CC(C)C)C(=O)N[C@@H](CCCCN)C(=O)O)[C@@H](C)CC
viability (HeLa; cell growth or viability, MTT; 8 µg/mL): 94.7%

CC[C@H](C)[C@H](NC(=O)[C@H](CCCCN)NC(=O)[C@H](CC(N)=O)NC(=O)CNC(=O)[C@@H](NC(=O)[C@H](C)NC(=O)[C@H](CCCNC(=N)N)NC(=O)[C@H](CC(C)C)NC(=O)[C@H](CCCCN)NC(=O)[C@H](CCCCN)NC(=O)[C@H](CCCCN)NC(=O)[C@H](C)NC(=O)[C@H](CCCCN)NC(=O)[C@@H]1CSSC[C@H](NC(=O)[C@H](CCCNC(=N)N)NC(=O)CN)C(=O)N[C@@H](CC(N)=O)C(=O)N[C@@H](CC(C)C)C(=O)N[C@@H](CC(C)C)C(=O)N1)C(C)C)C(=O)N[C@@H](CCCCN)C(=O)N[C@@H](CCC(=O)O)C(=O)N[C@H](C(=O)N[C@@H](CCCCN)C(=O)N[C@@H](CC(N)=O)C(=O)N[C@H](C(=O)N[C@H](C(=O)N[C@@H](Cc1ccccc1)C(=O)N[C@@H](CC(N)=O)C(=O)N[C@@H](CCCNC(=N)N)C(=O)O)C(C)C)C(C)C)[C@@H](C)CC
hemolysis (human erythrocytes; 5 µM, 30 min, 37 °C; baseline: Triton X-100): -5.14 ± 3.45%
